Experimental data from different studies.
A part holds a random share of what one study measured.
Chain of UniProt P10721 (whole entry, unmodified, looked up): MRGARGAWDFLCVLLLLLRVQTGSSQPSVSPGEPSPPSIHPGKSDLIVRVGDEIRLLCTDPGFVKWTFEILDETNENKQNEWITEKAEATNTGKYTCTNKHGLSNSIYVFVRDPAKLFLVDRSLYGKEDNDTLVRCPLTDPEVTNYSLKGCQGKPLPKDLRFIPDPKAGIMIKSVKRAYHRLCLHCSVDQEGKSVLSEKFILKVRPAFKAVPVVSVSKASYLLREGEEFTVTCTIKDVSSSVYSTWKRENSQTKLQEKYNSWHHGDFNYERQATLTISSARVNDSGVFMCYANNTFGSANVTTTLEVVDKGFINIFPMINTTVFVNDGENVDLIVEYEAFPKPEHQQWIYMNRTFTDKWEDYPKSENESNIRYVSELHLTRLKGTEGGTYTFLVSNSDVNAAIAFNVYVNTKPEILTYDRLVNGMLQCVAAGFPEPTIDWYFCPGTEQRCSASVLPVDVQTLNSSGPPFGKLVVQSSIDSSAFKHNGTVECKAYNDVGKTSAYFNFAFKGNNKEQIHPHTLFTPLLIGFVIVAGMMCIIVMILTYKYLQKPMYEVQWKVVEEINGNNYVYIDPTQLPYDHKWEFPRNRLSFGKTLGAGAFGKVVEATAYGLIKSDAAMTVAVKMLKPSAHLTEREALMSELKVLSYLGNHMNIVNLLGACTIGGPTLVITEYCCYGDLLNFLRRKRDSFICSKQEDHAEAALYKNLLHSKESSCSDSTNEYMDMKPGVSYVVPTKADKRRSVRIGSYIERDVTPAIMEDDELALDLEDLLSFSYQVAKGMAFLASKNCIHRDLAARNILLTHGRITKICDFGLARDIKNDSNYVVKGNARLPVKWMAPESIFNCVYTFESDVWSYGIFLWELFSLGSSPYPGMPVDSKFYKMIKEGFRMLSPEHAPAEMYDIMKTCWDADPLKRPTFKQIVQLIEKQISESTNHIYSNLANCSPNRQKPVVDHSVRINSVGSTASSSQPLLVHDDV
Chain of UniProt Q13464 (whole entry, looked up): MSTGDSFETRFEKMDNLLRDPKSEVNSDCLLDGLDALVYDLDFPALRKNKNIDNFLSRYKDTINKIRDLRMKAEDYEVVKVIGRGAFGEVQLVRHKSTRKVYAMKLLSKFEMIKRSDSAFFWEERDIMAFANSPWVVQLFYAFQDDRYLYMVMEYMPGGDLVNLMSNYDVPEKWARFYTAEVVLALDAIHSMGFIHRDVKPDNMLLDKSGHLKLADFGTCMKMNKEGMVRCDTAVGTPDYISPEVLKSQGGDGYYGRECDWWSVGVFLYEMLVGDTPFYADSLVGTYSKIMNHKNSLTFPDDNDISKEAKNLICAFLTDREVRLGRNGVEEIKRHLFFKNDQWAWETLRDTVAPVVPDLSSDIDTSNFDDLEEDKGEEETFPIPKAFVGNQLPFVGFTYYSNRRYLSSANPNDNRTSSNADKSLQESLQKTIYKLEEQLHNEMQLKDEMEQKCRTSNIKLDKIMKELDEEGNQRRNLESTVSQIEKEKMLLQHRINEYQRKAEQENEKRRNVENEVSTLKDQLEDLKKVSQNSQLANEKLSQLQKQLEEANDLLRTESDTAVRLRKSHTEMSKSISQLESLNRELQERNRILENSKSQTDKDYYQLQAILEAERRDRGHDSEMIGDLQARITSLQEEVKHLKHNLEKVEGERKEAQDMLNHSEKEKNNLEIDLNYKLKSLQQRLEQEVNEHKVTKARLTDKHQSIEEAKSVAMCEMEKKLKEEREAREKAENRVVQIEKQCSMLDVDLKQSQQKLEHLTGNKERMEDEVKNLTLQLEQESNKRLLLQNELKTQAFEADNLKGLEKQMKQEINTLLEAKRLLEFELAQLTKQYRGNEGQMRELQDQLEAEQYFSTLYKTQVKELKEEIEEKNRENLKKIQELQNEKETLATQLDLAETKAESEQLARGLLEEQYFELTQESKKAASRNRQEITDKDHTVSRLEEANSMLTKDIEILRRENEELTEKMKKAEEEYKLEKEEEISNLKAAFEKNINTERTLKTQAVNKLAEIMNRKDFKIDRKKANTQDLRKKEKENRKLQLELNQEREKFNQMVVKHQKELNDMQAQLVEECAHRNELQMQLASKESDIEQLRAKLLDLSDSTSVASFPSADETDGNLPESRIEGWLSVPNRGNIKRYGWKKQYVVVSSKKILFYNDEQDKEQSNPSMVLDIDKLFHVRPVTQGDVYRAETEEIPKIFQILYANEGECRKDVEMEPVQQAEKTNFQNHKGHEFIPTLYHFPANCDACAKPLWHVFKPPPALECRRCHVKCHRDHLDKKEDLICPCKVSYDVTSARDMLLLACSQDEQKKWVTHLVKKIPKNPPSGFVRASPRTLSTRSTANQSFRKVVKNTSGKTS
Chain of UniProt Q9C098 (whole entry, looked up): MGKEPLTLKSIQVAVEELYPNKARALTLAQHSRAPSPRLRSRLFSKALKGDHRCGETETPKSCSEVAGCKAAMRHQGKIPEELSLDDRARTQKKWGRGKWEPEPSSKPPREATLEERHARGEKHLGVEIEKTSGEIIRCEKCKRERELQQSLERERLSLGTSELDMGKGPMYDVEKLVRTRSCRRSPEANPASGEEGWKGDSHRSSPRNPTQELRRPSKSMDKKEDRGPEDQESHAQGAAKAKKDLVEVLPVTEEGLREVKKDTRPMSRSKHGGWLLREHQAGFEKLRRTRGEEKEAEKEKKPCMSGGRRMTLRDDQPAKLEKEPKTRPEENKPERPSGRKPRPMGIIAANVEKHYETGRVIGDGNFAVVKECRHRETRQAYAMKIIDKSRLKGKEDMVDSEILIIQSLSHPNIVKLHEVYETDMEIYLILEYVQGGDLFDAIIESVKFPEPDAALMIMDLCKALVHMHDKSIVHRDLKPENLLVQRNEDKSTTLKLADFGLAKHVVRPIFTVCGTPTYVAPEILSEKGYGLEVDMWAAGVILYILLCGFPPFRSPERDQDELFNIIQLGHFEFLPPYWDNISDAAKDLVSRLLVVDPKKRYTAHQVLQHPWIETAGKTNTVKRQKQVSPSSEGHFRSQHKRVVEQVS
Chain of UniProt P51812 (whole entry, looked up): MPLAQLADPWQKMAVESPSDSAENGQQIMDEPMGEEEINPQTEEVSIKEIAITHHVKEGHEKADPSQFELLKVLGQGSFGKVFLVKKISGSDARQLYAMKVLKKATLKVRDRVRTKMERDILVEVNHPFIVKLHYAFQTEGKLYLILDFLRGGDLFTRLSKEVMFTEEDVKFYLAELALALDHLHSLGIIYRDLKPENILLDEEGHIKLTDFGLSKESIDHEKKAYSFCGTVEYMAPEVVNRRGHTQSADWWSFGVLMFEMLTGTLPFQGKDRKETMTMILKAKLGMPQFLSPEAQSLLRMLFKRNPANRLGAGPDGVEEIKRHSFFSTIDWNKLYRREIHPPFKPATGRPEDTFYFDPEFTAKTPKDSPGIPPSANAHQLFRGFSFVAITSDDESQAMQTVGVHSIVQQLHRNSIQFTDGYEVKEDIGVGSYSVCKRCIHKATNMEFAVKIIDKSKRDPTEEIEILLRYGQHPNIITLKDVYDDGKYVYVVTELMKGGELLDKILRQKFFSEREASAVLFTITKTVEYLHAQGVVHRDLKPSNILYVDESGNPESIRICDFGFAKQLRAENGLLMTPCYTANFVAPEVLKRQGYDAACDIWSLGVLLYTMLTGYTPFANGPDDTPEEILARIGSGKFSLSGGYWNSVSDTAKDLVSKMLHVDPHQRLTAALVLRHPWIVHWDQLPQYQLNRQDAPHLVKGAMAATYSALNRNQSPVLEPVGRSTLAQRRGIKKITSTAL
Chain of UniProt O14733 (whole entry, looked up): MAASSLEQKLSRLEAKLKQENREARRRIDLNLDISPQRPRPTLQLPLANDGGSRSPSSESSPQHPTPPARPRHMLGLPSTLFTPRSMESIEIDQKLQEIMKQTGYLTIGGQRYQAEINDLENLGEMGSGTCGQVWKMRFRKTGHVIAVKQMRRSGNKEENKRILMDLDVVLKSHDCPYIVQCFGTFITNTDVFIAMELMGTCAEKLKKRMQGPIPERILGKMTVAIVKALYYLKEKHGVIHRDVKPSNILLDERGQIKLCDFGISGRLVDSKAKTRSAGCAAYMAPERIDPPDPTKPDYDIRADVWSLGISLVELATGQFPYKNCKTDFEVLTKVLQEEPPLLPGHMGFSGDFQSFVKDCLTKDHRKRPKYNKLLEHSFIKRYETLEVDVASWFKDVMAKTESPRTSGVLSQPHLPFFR
Chain of UniProt Q08345 (whole entry, looked up): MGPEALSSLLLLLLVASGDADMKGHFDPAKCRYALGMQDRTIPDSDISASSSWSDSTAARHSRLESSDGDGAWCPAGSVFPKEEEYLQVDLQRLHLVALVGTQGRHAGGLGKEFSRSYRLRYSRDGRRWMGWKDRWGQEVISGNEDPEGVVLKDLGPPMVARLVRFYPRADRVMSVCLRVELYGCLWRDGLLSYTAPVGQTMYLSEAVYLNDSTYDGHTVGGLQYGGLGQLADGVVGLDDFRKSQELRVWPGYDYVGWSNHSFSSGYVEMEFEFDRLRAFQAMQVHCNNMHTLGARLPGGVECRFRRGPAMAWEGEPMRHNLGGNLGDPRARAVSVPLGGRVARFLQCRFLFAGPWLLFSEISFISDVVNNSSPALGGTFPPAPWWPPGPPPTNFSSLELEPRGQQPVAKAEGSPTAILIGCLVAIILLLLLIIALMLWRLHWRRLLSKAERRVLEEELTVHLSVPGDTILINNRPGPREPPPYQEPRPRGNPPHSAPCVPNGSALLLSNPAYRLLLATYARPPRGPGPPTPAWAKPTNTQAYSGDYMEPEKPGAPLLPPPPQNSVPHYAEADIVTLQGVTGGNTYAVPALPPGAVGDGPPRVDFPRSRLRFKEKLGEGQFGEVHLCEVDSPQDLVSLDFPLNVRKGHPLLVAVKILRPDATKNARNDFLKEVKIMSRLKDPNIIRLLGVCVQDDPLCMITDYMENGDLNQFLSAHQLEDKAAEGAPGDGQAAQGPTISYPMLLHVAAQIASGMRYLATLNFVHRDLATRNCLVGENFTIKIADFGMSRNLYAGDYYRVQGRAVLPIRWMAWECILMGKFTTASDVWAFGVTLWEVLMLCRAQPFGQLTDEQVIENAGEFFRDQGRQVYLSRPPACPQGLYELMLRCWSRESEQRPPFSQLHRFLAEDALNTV

Sample 1
Target: RING finger protein unkempt homolog, zinc fingers 1-6, GST-SBP tag (UNK, Homo sapiens, UniProt Q9C0B0, residues 30-357)
Technique: RNA Bind-n-Seq
Form: RNA
Sample: in vitro
Concentration: not given
Setting: RNA with constant flanks, human-mouse chimeric sites, ends assumed
Baseline: input RNA pool
Direction: higher = stronger binding
Constant ends, left off below: GGGAGUUCUACAGUCCGACGAUC … CAACAGAGGAUUGAGCAUCA
Residues (chain): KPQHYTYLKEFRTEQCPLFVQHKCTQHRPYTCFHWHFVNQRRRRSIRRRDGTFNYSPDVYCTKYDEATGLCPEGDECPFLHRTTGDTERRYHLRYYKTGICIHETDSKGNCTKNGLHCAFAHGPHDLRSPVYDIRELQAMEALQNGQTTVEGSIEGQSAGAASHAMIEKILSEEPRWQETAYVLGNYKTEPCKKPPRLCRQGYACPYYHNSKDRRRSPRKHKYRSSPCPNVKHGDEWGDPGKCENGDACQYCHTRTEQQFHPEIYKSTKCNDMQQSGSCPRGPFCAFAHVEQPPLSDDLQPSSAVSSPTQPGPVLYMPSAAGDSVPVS
Oligonucleotide | bound/input enrichment [ratio]
AUCAAGUACUUUGGGGACAUCAUUAGUGUGGGACAGAGACUGUUGCAAGGAGCUCGGAUCUUAGGGAUUCCAGUUAUUGUAACAGAACAAUACCCCAAAGGACUUGGCAGCACCGUUCAA | 0.112
CAGCCUCAGAGCCCAGACUUCCUGGACAUUACCAACCCUAAAGCGGUAUUAGAAAACGCAUUGAGAAACUUCGCCUGUCUGACGACUGGAGAUGUGAUUGCUAUCAACUACAAUGAGAAG | 0.311
UGUAGUUUCUUGAUUUAUCAUUUUUCUCUUUUCUUUCUUUCCUUUAGGAAAAGCCUAAAGAUUAGGUUGUAAGAAAAACAGAAGCCAUGUUUCGAAGGAAGACCUGUAUUACAGGUAGUC | 0.187
UCAUUUUGCUCGGGUUAUUCUUUCCUUUAGGAAAAGCCUAAAGAUUAGUAAGAAAAGAAAACAGAAGCCAUGUUUCGAAGACCUGUGUUACAGGUAUUUCGUCAGUUUGUAAGACAUGAG | 0.58
AAGCAACGCAAACUUGAAACUACAGAAUAUCUUGCAGCCUCAGUGUUCACUUGCUUGGCGAUAGCAUUGGGGUUUUAUAGGUUCUGGAAGGAGAACUGACGAUGAUGCUGCCGCUGCUGC | 0.605
AUGGAACAUUUCGAUGCGUCACUCAGUACCUAUUUCAAGGCCUUCCUGGGCCCCCGAGAUACUAGAGUCAAAGGAUGGUUCCUCCUGGACAAUUACAUACCCACAUUUGUCUGUUCUGUU | 0.0825
GGCCUGGGACCGUCCUGGGCUAGUACAAUAGCGGCAGGUGGAGGCUCGAGAGGAAAGUUUGUUAGUGAGGCAGUGGUUAGAGGCCGUCAUGUACGGUCCUUUACUCGAUAGAUGUGUUCU | 0.698
AAAGAACCUCUCUCUGAUGAAGAUGAGGAAGACAAUGAUGAUGUUGAACCCAUUUCUGAAUUUAGAUUUGUGCCCAGUGAUAAAUCAGCAUUGGAGGCGAUGUUCACAGCAAUGUGUGAG | 1.28

Sample 2
Cell line: A-375
Concentration: 100 µM
Time: 36 h
Structure (SMILES) | viability [%]
C[C@H](Cc1cc2c(c(C(N)=O)c1)N(CCCO)CC2)NCCOc1ccccc1OCC(F)(F)F | 76.8
COc1c(C)c2c(c(O)c1C/C=C(\C)CCC(=O)OCCN1CCOCC1)C(=O)OC2 | 34.9
CC(=O)Oc1ccc(C(c2ccc(OC(C)=O)cc2)c2ccccn2)cc1 | 1.14
Cc1cnc(C(=O)O)c[n+]1[O-] | 78

Sample 3
SMILES: Cc1nccc(COC(=O)N2C[C@@H]3[C@@H](CNC(=O)c4ccc5[nH]nnc5c4)[C@@H]3C2)n1
Read-out: cell-free assay
Technique: competition with immobilised ligand
Concentration: 1 µM
target | remaining binding
CSNK1A1 (Homo sapiens, UniProt P48729) | 86%
TNIK (Homo sapiens, UniProt Q9UKE5) | 100%
CAMK2A (Homo sapiens, UniProt Q9UQM7) | 65%
KIT (Homo sapiens, UniProt P10721) | 89%
Ribosomal protein S6 kinase alpha-3, N-terminal kinase domain (RPS6KA3, Homo sapiens, UniProt P51812) | 100%
DCLK3 (Homo sapiens, UniProt Q9C098) | 100%
ROCK1 (Homo sapiens, UniProt Q13464) | 71%
RIPK1 (Homo sapiens, UniProt Q13546) | 86%
SRPK2 (Homo sapiens, UniProt P78362) | 77%
KIT (Homo sapiens, UniProt P10721, D816V) | 100%
MAP2K7 (Homo sapiens, UniProt O14733) | 100%
DDR1 (Homo sapiens, UniProt Q08345) | 100%
SBK3 (Homo sapiens, UniProt P0C264) | 54%
STK3 (Homo sapiens, UniProt Q13188) | 97%
YES1 (Homo sapiens, UniProt P07947) | 100%

Mixed results
Technique: cross-linking MS
Molecule | partner | sample | setting | together with | quantity | value
BMS1 (Homo sapiens, UniProt Q14692) | NAT10 (Homo sapiens, UniProt Q9H0A0) | – | hits only | – | interaction screen | cross-linked
SMNDC1 (Homo sapiens, UniProt O75940) | SF3B2 (Homo sapiens, UniProt Q13435) | cell fractions | – | DSSO | cross-linked residues | K177 to K570
CCT3 (Homo sapiens, UniProt P49368) | PDCL3 (Homo sapiens, UniProt Q9H2J4) | cell fractions | – | DSSO | cross-linked residues | S380 to K214
MYCBP2 (Homo sapiens, UniProt O75592) | PARP1 (Homo sapiens, UniProt P09874) | cell fractions | – | DSSO | cross-linked residues | S899 to K418

For quick reference, copied from above (sample 2):
Structure (SMILES) | viability [%]
COc1c(C)c2c(c(O)c1C/C=C(\C)CCC(=O)OCCN1CCOCC1)C(=O)OC2 | 34.9
Cc1cnc(C(=O)O)c[n+]1[O-] | 78
CC(=O)Oc1ccc(C(c2ccc(OC(C)=O)cc2)c2ccccn2)cc1 | 1.14
